{"data": "Experimental data collected from several papers", "note": "Each numbered part is a random draw from the data of one study; scales do not carry over between parts. Substitutions count along the parent as printed."}
{"data": "Series 1", "target": "Histone acetyltransferase KAT6A, winged helix 2, GST fusion (KAT6A, Homo sapiens, UniProt Q92794, residues 85-181)", "technique": "protein binding microarray", "molecule type": "double-stranded DNA, one strand shown", "sample": "in vitro", "concentration": "not given", "setting": "8-mer, flanks averaged, mean of 2 arrays, mostly near background", "relative to": "not given", "direction": "higher = stronger binding", "Target sequence (chain)": "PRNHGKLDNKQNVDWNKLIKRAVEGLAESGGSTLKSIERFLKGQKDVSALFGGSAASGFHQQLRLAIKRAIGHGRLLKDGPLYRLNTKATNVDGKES"}
{"Sequence": "GATATTTA", "E-score": 0.0363}
{"Sequence": "AGGAATAG", "E-score": -0.134}
{"Sequence": "ATATCGGC", "E-score": 0.124}
{"Sequence": "CCAGTATA", "E-score": -0.0429}
{"Sequence": "GCGGCAAA", "E-score": 0.117}
{"Sequence": "CTTTATGA", "E-score": -0.00786}
{"Sequence": "AATTTGCT", "E-score": 0.0695}
{"Sequence": "AAGAGCAC", "E-score": 0.0691}
{"Sequence": "GGTCGATA", "E-score": -0.144}
{"Sequence": "CACAATAA", "E-score": -0.186}
{"Sequence": "GTCTTAGA", "E-score": -0.0963}
{"Sequence": "CCACAGTC", "E-score": -0.112}
{"Sequence": "ACGGGGTG", "E-score": 0.0532}
{"Sequence": "CGCGCTAG", "E-score": -0.0207}
{"Sequence": "GACTAAAC", "E-score": -0.0938}
{"Sequence": "AAAGCTCG", "E-score": 0.0736}
{"Sequence": "GGTGGGAC", "E-score": -0.143}
{"data": "Series 2", "target": "RNA binding protein fox-1 homolog 2, RRM domain, GST-SBP tag (RBFOX2, Homo sapiens, UniProt O43251-10, residues 100-194)", "technique": "RNA Bind-n-Seq", "molecule type": "RNA", "sample": "in vitro", "concentration": "365 nM", "setting": "natural RNA segment, single round, ends assumed", "relative to": "no-protein control", "direction": "higher = stronger binding", "Target sequence (chain)": "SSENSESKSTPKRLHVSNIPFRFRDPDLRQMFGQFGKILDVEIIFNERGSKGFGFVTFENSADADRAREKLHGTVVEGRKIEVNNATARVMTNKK"}
{"Sequence": "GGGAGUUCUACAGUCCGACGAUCGAUUUAGCUUUUCUUUUGUUAUAUAAACUGCUAGCCACAAAUUUUAGUUAUGUAAAAGGCUACCCUUGACAAGAAAAGACAUACUGUCAUGUAUUUAUAUUCUAGCAUAGUGGAAUUCUCGGGUGCCAA", "RBNS enrichment (R)": 0.766}
{"Sequence": "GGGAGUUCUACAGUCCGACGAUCCCACUUCUCACCCUUCUUUCCUCCUGACCUUGGUCAGCAGUGAUGACCUCCAACUCUCACCCACCCCCUCUACCAUCACCUCUAACCAGGCAAGCCAGGGUGGGAGAGCAUGGAAUUCUCGGGUGCCAA", "RBNS enrichment (R)": 0.369}
{"Sequence": "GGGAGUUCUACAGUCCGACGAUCGAUUUAACUAGUGAGAAUUGUAUUCAAGUGAACUCUGUUUUUCUGAAAAUAAAAAUAUAAACAAUGAAUACAUUUGUAAGGAUCAGCAUUUUAUUUUAUGAGUCAUUUUAUGGAAUUCUCGGGUGCCAA", "RBNS enrichment (R)": 0.899}
{"Sequence": "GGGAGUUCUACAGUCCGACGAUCCAGAGGUUUCUUGAAUAUCUGCCCCAGUAGUCAGAAGCAGGUUCUUGAUGUCAUGUACUUCCUGUGUACUCUUUAUUUCUAGCAGAGUGAGGAUGUGUUUUGCACGUCUUUGGAAUUCUCGGGUGCCAA", "RBNS enrichment (R)": 0.578}
{"Sequence": "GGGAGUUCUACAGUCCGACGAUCCCGGUCUGUCCCGCUUGCCGGGCUUCUGUUGCAAGUCUUGGCUUAAGGAGACUUCCUGUGGGUUGCCAUGUCGCACGUCCGUUAGAUCUUGAUUUUACAGGUGAGGGUGGUGGAAUUCUCGGGUGCCAA", "RBNS enrichment (R)": 0.551}
{"Sequence": "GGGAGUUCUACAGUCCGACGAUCUUAACACUGAUUGUCUAAGAGAUGAAAGUCCUCCAAAGAUGACACAGGAAAAAUACUACAAGUAAUUGUGGUGGAAAUGUCUGUGUUCCUUGGGAAUGCUGCGCUCUCUGUGGAAUUCUCGGGUGCCAA", "RBNS enrichment (R)": 0.163}
{"Sequence": "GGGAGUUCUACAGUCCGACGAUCCAGACAGGGCCUAGCUUUCAUUUGACACACAGACUACAGCCAGAAGCCCAUGGAGCAGGGAUGUCACGUCUUGAAAAGCCUAUUAGAUGUUUUACAAAUUUAAUUUUGCAUGGAAUUCUCGGGUGCCAA", "RBNS enrichment (R)": 1.29}
{"Sequence": "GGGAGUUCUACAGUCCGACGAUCAUGAGGCUCGGUCACCACGCUGAGCCUACGUCACUUCCCACUUCCACUGGGGCUUGGUGCCCUGUAGGGGUGGGAGGAUGGCUUAAUGCAGACCUUUACCUGUGAGCCCCUGGAAUUCUCGGGUGCCAA", "RBNS enrichment (R)": 0.165}
{"data": "Series 3", "target": "CCND1, cyclin fold, Cln2 fusion (human)", "technique": "yeast growth competition, sequencing", "sample": "yeast", "setting": "strong parent motif", "relative to": "not given", "direction": "higher = stronger binding", "parent": "PKN2 docking peptide (human); VSAVQKLDFSDTM"}
{"Variant": "VSAVQKFDFSDTM [L7F]", "normalised enrichment score": 1.23}
{"Variant": "VSAVQKLDYSDTM [F9Y]", "normalised enrichment score": 0.49}
{"Variant": "VMAVQKLDFSDTM [S2M]", "normalised enrichment score": 1.44}
{"Variant": "VSAVQKLDPSDTM [F9P]", "normalised enrichment score": 0.123}
{"Variant": "VSAVQKLDFKDTM [S10K]", "normalised enrichment score": 1.86}
{"Variant": "VSAQQKLDFSDTM [V4Q]", "normalised enrichment score": 0.891}
{"Variant": "VSAVQKLDISDTM [F9I]", "normalised enrichment score": -0.0917}
{"Variant": "VSAVQKLDFHDTM [S10H]", "normalised enrichment score": 1.18}
{"Variant": "VSANQKLDFSDTM [V4N]", "normalised enrichment score": 0.463}
{"Variant": "VSAVQKEDFSDTM [L7E]", "normalised enrichment score": 0.348}
{"Variant": "VSAVQKLDFSDYM [T12Y]", "normalised enrichment score": 2.37}
{"Variant": "VSAVQKLDFSDTE [M13E]", "normalised enrichment score": 2.44}
{"Variant": "TSAVQKLDFSDTM [V1T]", "normalised enrichment score": 2.43}
{"Variant": "VSAVQKLDFSDPM [T12P]", "normalised enrichment score": 2.69}
{"Variant": "VSAVQKLDFSDGM [T12G]", "normalised enrichment score": 2.39}
{"Variant": "VSAVQKLTFSDTM [D8T]", "normalised enrichment score": 1.74}
{"Variant": "VSAVQKLDFTDTM [S10T]", "normalised enrichment score": 1.65}
{"Variant": "VSAVQKLDFSDTL [M13L]", "normalised enrichment score": 2.32}
{"Variant": "MSAVQKLDFSDTM [V1M]", "normalised enrichment score": 2.09}
{"Variant": "WSAVQKLDFSDTM [V1W]", "normalised enrichment score": 1.98}
{"Variant": "VSAVQKLDCSDTM [F9C]", "normalised enrichment score": 0.352}
{"Variant": "VSAVQKLDKSDTM [F9K]", "normalised enrichment score": 0.191}
{"Variant": "VSAAQKLDFSDTM [V4A]", "normalised enrichment score": 1.05}
{"Variant": "VSAVQWLDFSDTM [K6W]", "normalised enrichment score": 1.44}
{"Variant": "VSAKQKLDFSDTM [V4K]", "normalised enrichment score": 0.625}
{"data": "Series 4", "target": "ATF5, bZIP domain (human)", "technique": "DHFR protein complementation", "sample": "yeast", "setting": "single substitutions, most at no-binding floor", "relative to": "wild-type JUN-FOS pair", "direction": "higher = stronger binding", "parent": "JUN, bZIP domain (human); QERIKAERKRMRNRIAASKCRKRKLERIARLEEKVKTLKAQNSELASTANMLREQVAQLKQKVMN; partner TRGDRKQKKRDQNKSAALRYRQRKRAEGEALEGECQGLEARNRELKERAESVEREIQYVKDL"}
{"Variant": "T48L", "binding fitness [natural log]": -1.53}
{"Variant": "A40F", "binding fitness [natural log]": -1.53}
{"Variant": "A46E", "binding fitness [natural log]": -1.44}
{"Variant": "K36A", "binding fitness [natural log]": -1.29}
{"Variant": "A46I", "binding fitness [natural log]": -1.46}
{"Variant": "E32V", "binding fitness [natural log]": -1.35}
{"Variant": "Q55T", "binding fitness [natural log]": -1.47}
{"Variant": "Q58P", "binding fitness [natural log]": -1.49}
{"Variant": "K36L", "binding fitness [natural log]": -1.33}
{"Variant": "R53T", "binding fitness [natural log]": -1.58}
{"Variant": "L45M", "binding fitness [natural log]": -1.48}
{"Variant": "E33N", "binding fitness [natural log]": -1.49}
{"Variant": "A46K", "binding fitness [natural log]": -1.47}
{"Variant": "T37L", "binding fitness [natural log]": -1.34}
{"Variant": "S47F", "binding fitness [natural log]": -1.46}
{"Variant": "T48E", "binding fitness [natural log]": -1.35}
{"Variant": "L31P", "binding fitness [natural log]": -1.53}
{"Variant": "M51E", "binding fitness [natural log]": -1.29}
{"Variant": "E32M", "binding fitness [natural log]": -1.46}
{"Variant": "L38E", "binding fitness [natural log]": -1.53}
{"Variant": "S47P", "binding fitness [natural log]": -1.44}
{"Variant": "L52T", "binding fitness [natural log]": -1.54}
{"Variant": "Q41E", "binding fitness [natural log]": -1.33}
{"Variant": "T48V", "binding fitness [natural log]": -1.46}
{"data": "Series 5", "target": "ABI1, truncated, D143A, DHFR fusion (Arabidopsis thaliana)", "technique": "DHFR PCA, deep sequencing", "sample": "yeast", "setting": "methotrexate growth selection, single substitutions", "with": "(+)-ABA 17 µM", "relative to": "wild-type fitted maximum", "direction": "higher = stronger binding", "parent": "PYL1, truncated, DHFR fusion (Arabidopsis thaliana); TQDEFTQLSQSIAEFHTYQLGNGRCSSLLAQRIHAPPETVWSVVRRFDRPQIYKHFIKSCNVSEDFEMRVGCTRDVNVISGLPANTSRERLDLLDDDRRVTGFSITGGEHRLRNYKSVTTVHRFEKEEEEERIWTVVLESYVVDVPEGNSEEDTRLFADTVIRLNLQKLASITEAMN"}
{"Variant": "A170I", "relative binding score [%]": -10.1}
{"Variant": "G21F", "relative binding score [%]": 60.1}
{"Variant": "E152A", "relative binding score [%]": 83.7}
{"Variant": "H16I", "relative binding score [%]": -6.2}
{"Variant": "Q31W", "relative binding score [%]": 34.1}
{"Variant": "K116C", "relative binding score [%]": 46.8}
{"Variant": "R32Q", "relative binding score [%]": 76}
{"Variant": "N22S", "relative binding score [%]": 86.3}
{"Variant": "E147Y", "relative binding score [%]": 76}
{"Variant": "D92Q", "relative binding score [%]": 18.4}
{"Variant": "G21T", "relative binding score [%]": 80.1}
{"Variant": "K168M", "relative binding score [%]": 64.2}
{"Variant": "S80C", "relative binding score [%]": 8.53}
{"Variant": "C25F", "relative binding score [%]": 23.7}
{"Variant": "S87T", "relative binding score [%]": 32.2}
{"Variant": "V70H", "relative binding score [%]": 33.5}
{"Variant": "I133P", "relative binding score [%]": 96.5}
{"Variant": "C60F", "relative binding score [%]": 6.47}
{"Variant": "R46A", "relative binding score [%]": 81.1}
